Assay results from different studies.
Each numbered part is a random draw from the data of one study; scales do not carry over between parts. Positions count from the first letter of the parent shown.

Set 1
Target: CCNA1, cyclin fold, Cln2 fusion (human)
Technique: yeast growth competition, sequencing
Matrix: yeast
Setting: weak parent motif
Baseline: not given
Reading: higher = stronger binding
Parent: WEE1 docking peptide (human); HKTFRKLRLFDTP; partner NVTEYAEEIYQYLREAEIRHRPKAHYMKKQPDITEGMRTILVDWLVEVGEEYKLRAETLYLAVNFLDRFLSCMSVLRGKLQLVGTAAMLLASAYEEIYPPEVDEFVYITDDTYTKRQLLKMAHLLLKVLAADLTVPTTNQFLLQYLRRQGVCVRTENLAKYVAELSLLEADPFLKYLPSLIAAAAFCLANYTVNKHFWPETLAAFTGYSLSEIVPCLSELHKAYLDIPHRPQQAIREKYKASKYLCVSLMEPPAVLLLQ
| Substitution | normalised enrichment score |
| --- | --- |
| T3Q | 0.0597 |
| L7A | 0.0657 |
| F4R | 0.338 |
| T12V | 0.36 |

Set 2
Target: RING finger protein unkempt homolog, zinc fingers 1-6, SBP tag (UNK, Homo sapiens, UniProt Q9C0B0, residues 30-357)
UniProt Q9C0B0, sequence (30-357, looked up): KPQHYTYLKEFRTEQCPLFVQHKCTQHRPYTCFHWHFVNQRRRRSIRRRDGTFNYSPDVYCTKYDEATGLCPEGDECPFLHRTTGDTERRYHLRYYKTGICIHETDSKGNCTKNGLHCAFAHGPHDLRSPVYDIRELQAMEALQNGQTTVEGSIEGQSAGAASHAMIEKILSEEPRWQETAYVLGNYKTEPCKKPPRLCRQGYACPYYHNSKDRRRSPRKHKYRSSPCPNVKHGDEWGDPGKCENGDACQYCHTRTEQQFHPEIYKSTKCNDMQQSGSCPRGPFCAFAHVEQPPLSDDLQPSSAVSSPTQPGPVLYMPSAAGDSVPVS
Technique: RNA Bind-n-Seq
Molecule type: RNA
Matrix: in vitro
Concentration: 100 nM
Setting: RNA with constant flanks, vertebrate orthologous sites, ends assumed
Baseline: input RNA pool
Reading: higher = stronger binding
All sequences stand within: GGGAGUUCUACAGUCCGACGAUC … CAACAGAGGAUUGAGCAUCA
| Sequence | bound/input enrichment [ratio] |
| --- | --- |
| GUGACUUUGGACGUCCGUUCAUGCUUGGUGUAGGGACUGCUUAGUGCCGGGCCUUGCAGUUUUGAUCUUUUCUUUUCGAGCCGAGGCCUCUGCUGCAGCCAUGUUACGCCAGAUCUUCGG | 0.25 |
| AGGAAAUGCUGGCUGCAAACCCUCAGGAUCGUCCAGAUGCUUUUGAACUAGAACUCAGAUUAGUACAAAUCGCAUUUAAAGAUAGCAGCUGGGAAACGUGACACACAUUAUUUGCAAAUA | 0.872 |
| GAUCCUCCCCGUUACCCCUAAAGUAGAACUUACCAAAAUUGUGUGCCUGCCACACAGUUUUAACAAUAUUAGAAGAAAAUGCUAAUGAAGUUACACUCAUUGUUUGGCAAACCAAAUAGU | 1.48 |
| UUUGUUUCUAAUUUCAAGCAAAAAAAAAAUCUUAUUGUACUUGAAUGUGUCCUGUUUUGUUAGCACACCUAGACUUGCUGUAACUGUACUCAUGUCCCAGUAUGUACGUUCUUUCUAUGA | 0.526 |
| UAAUGCAAUGGUUGAAGGCUCUGAGCUCAAAAAGUUUCGGUCCAACUCUAGAGUAUAUCACCGGUACUUUCUUUUAGAUGCAGAUAUGCAGUCCCUGCGUUGGGAACCUUCAAAGAAGGA | 0.429 |
| UACAUCUGGUGAUAUUUGGCCUGGCCUCUCAGCUUAUGAUAAUAGUCCUAGAUCACCUCAUAGUCCUUCACCAAUUGCUACACCACCUAGUCAGAGUUCAUCUUGCUCUGAUGCCCCCAU | 1.31 |
| GUUGGGUCAUGACCCUUAUAGGUUAGGUCAUGAUGCUUACAGGUUAGGACAGGACCCCUAUAGAUUAGGCCAUGAUCCCUACAGACUAACUCCUGAUCCCUAUAGGAUGUCACCUAGACC | 0.91 |

Set 3
Target: Histone acetyltransferase KAT6A, both winged helices, GST fusion (KAT6A, Homo sapiens, UniProt Q92794, residues 1-181)
Technique: protein binding microarray
Molecule type: double-stranded DNA, one strand shown
Matrix: in vitro
Concentration: not given
Setting: 8-mer, flanks averaged, mean of 2 arrays, mostly near background
Baseline: not given
Reading: higher = stronger binding
Target sequence (chain): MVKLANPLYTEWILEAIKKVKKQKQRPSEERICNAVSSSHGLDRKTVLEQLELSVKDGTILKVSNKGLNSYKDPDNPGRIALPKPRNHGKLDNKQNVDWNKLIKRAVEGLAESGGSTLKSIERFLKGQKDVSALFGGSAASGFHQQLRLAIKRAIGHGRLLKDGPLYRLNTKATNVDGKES
| Sequence | E-score |
| --- | --- |
| CCAGCTAA | -0.157 |
| CGGGGGAA | 0.0764 |
| CACGGTGG | -0.0592 |
| ACGGCCTC | 0.146 |
| GAAATGCA | -0.239 |
| CAAAAGAC | 0.00485 |

Further values, each from its own experiment
| Substance | target | assay | system | conditions | scale | endpoint | result |
| --- | --- | --- | --- | --- | --- | --- | --- |
| PhoQ, residues 284 288 289 292 302 303 SSLVEF | PhoP, residues 12 14 15 18 19 IQSYL (Escherichia coli, UniProt P23836) | Sort-seq, item: YFP reporter | E. coli | PhoQ-PhoP variant library, together with: 10 µM Mg2+ | baseline: high Mg2+ state, higher = stronger signaling | fold induction | 1.67 |

Some of these lines once more (set 3):
| Sequence | E-score |
| --- | --- |
| GAAATGCA | -0.239 |
| ACGGCCTC | 0.146 |
| CAAAAGAC | 0.00485 |
